Published values gathered from unrelated publications.
Numbered parts are unrelated; each lists some results of a single study. Substitutions count along the parent as printed.
Sequence of UniProt Q8L7G0 (whole entry, looked up): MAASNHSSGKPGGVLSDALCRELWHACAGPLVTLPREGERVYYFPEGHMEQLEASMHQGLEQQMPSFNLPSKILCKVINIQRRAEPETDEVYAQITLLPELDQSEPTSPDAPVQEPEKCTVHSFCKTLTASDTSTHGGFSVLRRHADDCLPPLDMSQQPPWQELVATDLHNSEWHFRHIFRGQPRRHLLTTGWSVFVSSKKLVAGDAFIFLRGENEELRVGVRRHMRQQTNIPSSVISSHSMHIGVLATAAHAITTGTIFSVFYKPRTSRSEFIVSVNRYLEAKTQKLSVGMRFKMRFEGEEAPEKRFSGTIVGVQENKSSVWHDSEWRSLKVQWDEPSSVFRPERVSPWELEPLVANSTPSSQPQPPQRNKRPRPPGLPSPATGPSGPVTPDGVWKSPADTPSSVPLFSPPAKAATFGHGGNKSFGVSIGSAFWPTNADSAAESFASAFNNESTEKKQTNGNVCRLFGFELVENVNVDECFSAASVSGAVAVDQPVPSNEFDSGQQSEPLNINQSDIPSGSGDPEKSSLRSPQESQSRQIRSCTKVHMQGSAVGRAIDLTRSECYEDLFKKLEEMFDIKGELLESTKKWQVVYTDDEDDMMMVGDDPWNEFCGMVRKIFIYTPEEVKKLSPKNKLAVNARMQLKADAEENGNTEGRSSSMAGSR
Sequence of UniProt Q38832 (whole entry, looked up): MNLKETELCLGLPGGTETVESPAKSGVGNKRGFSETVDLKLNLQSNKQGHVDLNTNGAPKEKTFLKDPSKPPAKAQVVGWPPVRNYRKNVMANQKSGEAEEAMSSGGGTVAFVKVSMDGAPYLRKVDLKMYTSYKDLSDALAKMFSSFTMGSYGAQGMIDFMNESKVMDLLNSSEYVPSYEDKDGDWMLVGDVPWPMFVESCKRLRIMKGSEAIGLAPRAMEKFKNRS
Sequence of UniProt Q9C7I9 (whole entry, looked up): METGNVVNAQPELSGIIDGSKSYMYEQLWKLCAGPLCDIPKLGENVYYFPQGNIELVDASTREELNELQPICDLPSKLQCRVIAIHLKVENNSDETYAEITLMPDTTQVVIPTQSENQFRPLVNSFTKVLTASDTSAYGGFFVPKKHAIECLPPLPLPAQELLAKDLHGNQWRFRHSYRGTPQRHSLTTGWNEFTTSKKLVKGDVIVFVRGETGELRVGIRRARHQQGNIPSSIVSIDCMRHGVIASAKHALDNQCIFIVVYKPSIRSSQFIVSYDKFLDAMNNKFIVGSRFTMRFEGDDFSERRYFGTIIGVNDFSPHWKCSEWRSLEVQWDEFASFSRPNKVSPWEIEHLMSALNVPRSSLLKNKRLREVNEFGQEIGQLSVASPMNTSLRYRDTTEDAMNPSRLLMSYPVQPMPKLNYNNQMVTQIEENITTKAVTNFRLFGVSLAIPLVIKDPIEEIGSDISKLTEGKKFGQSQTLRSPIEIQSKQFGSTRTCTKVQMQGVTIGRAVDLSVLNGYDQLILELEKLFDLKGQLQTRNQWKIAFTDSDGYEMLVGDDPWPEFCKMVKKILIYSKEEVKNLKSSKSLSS
Sequence of UniProt Q9C5X0 (whole entry, looked up): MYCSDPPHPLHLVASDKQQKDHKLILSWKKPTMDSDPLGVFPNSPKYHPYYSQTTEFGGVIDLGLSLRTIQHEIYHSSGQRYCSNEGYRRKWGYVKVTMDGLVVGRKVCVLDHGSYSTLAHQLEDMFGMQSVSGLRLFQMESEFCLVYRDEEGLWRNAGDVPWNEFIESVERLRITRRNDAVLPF
Sequence of UniProt Q94JM3 (whole entry, looked up): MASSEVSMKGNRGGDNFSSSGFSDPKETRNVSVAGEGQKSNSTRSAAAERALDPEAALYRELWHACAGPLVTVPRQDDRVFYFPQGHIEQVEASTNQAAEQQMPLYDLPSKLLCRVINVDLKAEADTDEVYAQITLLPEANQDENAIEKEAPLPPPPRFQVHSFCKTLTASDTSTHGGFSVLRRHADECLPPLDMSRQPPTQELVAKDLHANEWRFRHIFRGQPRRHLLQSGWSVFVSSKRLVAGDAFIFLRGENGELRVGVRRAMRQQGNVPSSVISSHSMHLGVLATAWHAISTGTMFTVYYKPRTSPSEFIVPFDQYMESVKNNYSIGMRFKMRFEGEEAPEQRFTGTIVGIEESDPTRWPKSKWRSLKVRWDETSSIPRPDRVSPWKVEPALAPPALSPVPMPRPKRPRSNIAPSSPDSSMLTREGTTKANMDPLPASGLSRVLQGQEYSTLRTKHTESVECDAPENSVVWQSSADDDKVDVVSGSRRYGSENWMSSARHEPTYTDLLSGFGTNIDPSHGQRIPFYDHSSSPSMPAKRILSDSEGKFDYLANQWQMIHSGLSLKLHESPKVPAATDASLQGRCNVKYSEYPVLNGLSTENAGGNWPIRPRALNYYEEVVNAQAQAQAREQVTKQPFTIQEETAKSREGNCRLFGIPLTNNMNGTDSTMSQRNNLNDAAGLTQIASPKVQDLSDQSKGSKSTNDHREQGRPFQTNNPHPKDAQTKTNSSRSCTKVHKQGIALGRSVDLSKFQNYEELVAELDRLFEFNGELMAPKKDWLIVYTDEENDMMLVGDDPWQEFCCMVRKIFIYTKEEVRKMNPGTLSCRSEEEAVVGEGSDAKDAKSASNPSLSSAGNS
Sequence of UniProt Q38831 (whole entry, looked up): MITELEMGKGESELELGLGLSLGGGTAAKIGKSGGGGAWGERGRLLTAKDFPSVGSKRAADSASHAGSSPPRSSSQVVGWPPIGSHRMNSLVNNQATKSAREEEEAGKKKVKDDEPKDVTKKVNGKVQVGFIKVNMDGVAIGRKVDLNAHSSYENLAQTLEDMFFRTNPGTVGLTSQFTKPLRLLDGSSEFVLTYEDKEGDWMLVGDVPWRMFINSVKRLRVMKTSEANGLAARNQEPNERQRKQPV

Series 1
Target: BATF2, bZIP domain (human)
Technique: DHFR protein complementation
Sample: yeast
Setting: single substitutions, most at no-binding floor
Reference: wild-type JUN-FOS pair
Reading: higher = stronger binding
Measurement: binding fitness
Starting sequence: JUN, bZIP domain (human); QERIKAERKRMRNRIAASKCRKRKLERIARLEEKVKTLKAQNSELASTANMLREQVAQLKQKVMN; partner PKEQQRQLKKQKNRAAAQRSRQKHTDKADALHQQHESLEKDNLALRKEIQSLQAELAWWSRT
T48W: -0.489 natural log
L45H: -1.25 natural log
Q58V: -0.349 natural log
E54K: -0.427 natural log
Q41M: -0.362 natural log
Q41P: -1.53 natural log
A29K: -0.436 natural log
L52M: -0.693 natural log
T48E: -0.397 natural log
E32Y: -0.88 natural log
L45M: -0.655 natural log
K36G: -0.444 natural log
N42E: -1.32 natural log
S47A: -0.132 natural log
L59G: -1.39 natural log
L52W: -1.18 natural log
S43F: -0.378 natural log
N42C: -1.11 natural log
E54L: -0.636 natural log
K34Y: -0.699 natural log
Q41R: -0.472 natural log
L38G: -1.34 natural log
S47C: -0.298 natural log
T37N: -0.178 natural log
L38T: -1.09 natural log

Series 2
Target: CCNB3, cyclin fold, Cln2 fusion (human)
Technique: yeast growth competition, sequencing
Sample: yeast
Setting: weak parent motif
Reference: not given
Reading: higher = stronger binding
Measurement: normalised enrichment score
Starting sequence: RBL1 docking peptide (human); GSAKRRLFGEDPP
GSAKRRMFGEDPP [L7M]: 0.0436
GSAKRRLFGEDWP [P12W]: 0.481
GSAKRRLFGEDPW [P13W]: 0.981
GSAKRRLFGENPP [D11N]: 0.784
GSAKRRLFGEDPK [P13K]: 0.114
GSAKRRLFNEDPP [G9N]: 1.43
GSDKRRLFGEDPP [A3D]: 0.0625
GSAKRRLFGMDPP [E10M]: 0.546
GSAYRRLFGEDPP [K4Y]: 0.338
GSAKVRLFGEDPP [R5V]: 0.346
GSAKRRLPGEDPP [F8P]: 0.368
GSAKRRLFGEDKP [P12K]: 0.581
GSWKRRLFGEDPP [A3W]: 0.603
GSAKRRLFGEHPP [D11H]: 0.298
GSACRRLFGEDPP [K4C]: 0.166
GSAKRRLFGEVPP [D11V]: 0.341
GSAKRRLFGKDPP [E10K]: 0.453
GSNKRRLFGEDPP [A3N]: -0.228
GSAKRNLFGEDPP [R6N]: 1.08
GSAKRRLFGSDPP [E10S]: 0.796
GSAKRRLFVEDPP [G9V]: 1.39

Series 3
Molecule: B1 (IAA10)
Technique: two-hybrid
Reading: higher = firmer interaction
Measurement: positive tests
B1: IAA10 (Arabidopsis thaliana, UniProt Q38828); chain MNGLQEVCSSSGSVMIGLPAEEDENAAHSSEDSSCPDESVSETELDLALGLSIGRRKVRSSLSSSSSSLTRESGTKRSADSSPAAASNATRQVAVGWPPLRTYRINSLVNQAKSLATEGGLSSGIQKETTKSVVVAAKNDDACFIKSSRTSMLVKVTMDGVIIGRKVDLNALDSYAALEKTLDLMFFQIPSPVTRSNTQGYKTIKETCTSKLLDGSSEYIITYQDKDGDWMLVGDVPWQMFLGSVTRLRIMKTSIGAGVGK
IAA14 (Arabidopsis thaliana, UniProt Q38832); reference: out of 4 tests: 0
ARF1 538-665 (Arabidopsis thaliana, UniProt Q8L7G0); reference: out of 4 tests: 0
IAA34 (Arabidopsis thaliana, UniProt Q9C5X0); reference: out of 4 tests: 3
IAA13 (Arabidopsis thaliana, UniProt Q38831); reference: out of 3 tests: 0
ARF20 484-590 (Arabidopsis thaliana, UniProt Q9C7I9); reference: out of 4 tests: 0
ARF2 727-859 (Arabidopsis thaliana, UniProt Q94JM3); reference: out of 4 tests: 2

Series 4
Target: ABI1, truncated, D143A, DHFR fusion (Arabidopsis thaliana)
Technique: DHFR PCA, deep sequencing
Sample: yeast
Setting: methotrexate growth selection, single substitutions
Together with: (+)-ABA 2500 µM
Reference: wild-type fitted maximum
Reading: higher = stronger binding
Measurement: relative binding score
Starting sequence: PYL1, truncated, DHFR fusion (Arabidopsis thaliana); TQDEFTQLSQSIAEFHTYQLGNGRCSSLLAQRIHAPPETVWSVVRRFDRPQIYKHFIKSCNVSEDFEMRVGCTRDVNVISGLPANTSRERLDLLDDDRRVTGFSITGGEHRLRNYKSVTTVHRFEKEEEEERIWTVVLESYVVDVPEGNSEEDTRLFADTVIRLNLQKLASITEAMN; partner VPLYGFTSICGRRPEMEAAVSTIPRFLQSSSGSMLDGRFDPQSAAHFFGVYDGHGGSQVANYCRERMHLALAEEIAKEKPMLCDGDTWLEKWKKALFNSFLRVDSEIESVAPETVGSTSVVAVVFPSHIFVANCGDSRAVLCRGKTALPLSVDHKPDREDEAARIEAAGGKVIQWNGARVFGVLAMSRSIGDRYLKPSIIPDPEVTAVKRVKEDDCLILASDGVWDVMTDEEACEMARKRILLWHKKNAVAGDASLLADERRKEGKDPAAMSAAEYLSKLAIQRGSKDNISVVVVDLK
P83C: 74.3%
R45M: 69.1%
N177V: 93.6%
E130M: 104%
E14Q: 88.9%
D159I: 23.8%
V137S: 11.9%
I172A: 88.5%
D48R: 78.9%
L28C: 101%
Q167R: 98.4%
E174Q: 90.7%
S104V: 89.6%
R74P: -4.83%
T17M: 94.4%
E139M: 92.5%
I162P: -4.55%
E67Q: 95.4%
R98A: 101%
C72H: 95.2%
G107K: 93.3%
T119P: -2.52%
D65N: 97.7%
A84M: 34.4%
E4K: 82.1%

Series 5
Target: RNA binding protein fox-1 homolog 2, RRM domain, GST-SBP tag (RBFOX2, Homo sapiens, UniProt O43251-10, residues 100-194)
Technique: RNA Bind-n-Seq
Molecule type: RNA
Sample: in vitro
Concentration: 365 nM
Setting: natural RNA segment, single round, ends assumed
Reference: no-protein control
Reading: higher = stronger binding
Measurement: RBNS enrichment (R)
Constant ends, left off below: GGGAGUUCUACAGUCCGACGAUC … UGGAAUUCUCGGGUGCCAA
Target sequence (chain): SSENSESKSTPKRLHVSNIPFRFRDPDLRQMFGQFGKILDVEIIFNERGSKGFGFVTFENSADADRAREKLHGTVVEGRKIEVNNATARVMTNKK
UUUUGUAAUUUUCAAUUCUAUUGUAAAAGAAACUUAAGUCUCCAACUUGCUGUUUCCAAAAAGAAGGUGCAAUAUCAUAUACAUCAUUAGCAAUAUUAGCAUUUCAAUCA: 0.394
GAGAAUUGACAAGGAUGUAGAACAAGUGUUCCUUUCCAUCACACCUGCCAAGGGCAAAGCUACCUGGUAUCCAGGAAGAGAGCUCUGGUACCCUGUGCUUGUGUUUGUGU: 0.897
UGAACUCUUAAUCCUCCGCCUUGGCCCUCUAAGGGCUGCUAGUCCGAGUGUGGACAACCACACCUGGCUCUGGCGUCUGGCGGUCACUUGACGCUCAUCUGCGUCUCCGU: 0.132
GAGCAGAAUAGCAGUUCAGGGUCGCUUAAGGAGUCACCACAACUUAUGUGUUGGGUGACCACAAAAUCAACAGUAACUGAGAGAAACGAAUUCAUUUUGUAAAUAAUGUU: 0.445
CUGCAACCUCCGCAUCCCGGGUUCAAGAGAUUCUGCCUCAGCCUCCAGAGUAGCUGGGACUACAAACGUGUGUCACCAGGCCCAGCUAAUUUUUGUAUUUUUAAUAAAGA: 1.55
UUUACUAUAAUAAUUAUUUUUCUUCUAUGGAACUCAGAAUCCUGGCUACAUUUGAGGACAGGAAUAUGUUGAGCCUGAUUUUCCUGGUGUGUGUAAAAUAUUUCCUAGGA: 0.46
UCCCACACUGACAACUUGGCUUCCUUUCUGUGUGUUCAGUCUGUUGUCUGAACUAACACUCCCGCGAGCACUAUACUCUUUAUACUCUGAUCCCCCUAGUUCAUCUUAAA: 0.54
AAUGAAAACCCUGGAUAUUCUGGUCCUGAGUUGUUCAGAUGAGGGAGAGCCAACCUAUAGUUUAACAGCUUAGGUAAGACUCACUCUGCCCAUGCUGGCCAGGGGAACCC: 0.266
UUCCUUCUGCCCAUCUUCCAUGUUGUAAAGGAACAGCCCCAGUGCACUGGGGGAGGGGAGGGAGUGAGGGGCAGUGGUGCCCUUCCUGCAGAAGAGACAUGCAGCAGUAG: 0.291
AUCUCCUGCCUCUGUCACCUCAGUGCAGGGAAACUAUGGCCCCUGUGGUCUUGCUGUCUCUCCCACUGUGCCCUGGCCUGGCUUGUGGCUUCUUCUUUGCCUGUUCCAAA: 0.665
CCCGAGCCACGGUGUUCAGUCAGCCCACAGGAAUAUGCAAGACCCAUCUCCAAAAGUUUGUCUUUGAUUUUUUCCAAGCCCUUAGCCCCAUAAGCUUUGAAUCCUGUAGU: 0.453
UGCACUGACAUCCAGCACCUGGACAUCUCCCCUGGUGUCAGCCCACUGGCUCCGGGUCUACAUGGUGGGAGGAUCAGGAUGCUAAUGUUUCCCCUCUUUGGUUCUCAAAU: 0.514

Excerpt of the above (series 4):
Q167R: 98.4%
E174Q: 90.7%
S104V: 89.6%
R74P: -4.83%
T17M: 94.4%
E139M: 92.5%
